Measured values of several laboratories.
Every numbered part comes from another study and shows a few of its results, in no order. Changes are numbered by the printed parent chain.
Sequence of UniProt P00519 (whole entry, unmodified, looked up): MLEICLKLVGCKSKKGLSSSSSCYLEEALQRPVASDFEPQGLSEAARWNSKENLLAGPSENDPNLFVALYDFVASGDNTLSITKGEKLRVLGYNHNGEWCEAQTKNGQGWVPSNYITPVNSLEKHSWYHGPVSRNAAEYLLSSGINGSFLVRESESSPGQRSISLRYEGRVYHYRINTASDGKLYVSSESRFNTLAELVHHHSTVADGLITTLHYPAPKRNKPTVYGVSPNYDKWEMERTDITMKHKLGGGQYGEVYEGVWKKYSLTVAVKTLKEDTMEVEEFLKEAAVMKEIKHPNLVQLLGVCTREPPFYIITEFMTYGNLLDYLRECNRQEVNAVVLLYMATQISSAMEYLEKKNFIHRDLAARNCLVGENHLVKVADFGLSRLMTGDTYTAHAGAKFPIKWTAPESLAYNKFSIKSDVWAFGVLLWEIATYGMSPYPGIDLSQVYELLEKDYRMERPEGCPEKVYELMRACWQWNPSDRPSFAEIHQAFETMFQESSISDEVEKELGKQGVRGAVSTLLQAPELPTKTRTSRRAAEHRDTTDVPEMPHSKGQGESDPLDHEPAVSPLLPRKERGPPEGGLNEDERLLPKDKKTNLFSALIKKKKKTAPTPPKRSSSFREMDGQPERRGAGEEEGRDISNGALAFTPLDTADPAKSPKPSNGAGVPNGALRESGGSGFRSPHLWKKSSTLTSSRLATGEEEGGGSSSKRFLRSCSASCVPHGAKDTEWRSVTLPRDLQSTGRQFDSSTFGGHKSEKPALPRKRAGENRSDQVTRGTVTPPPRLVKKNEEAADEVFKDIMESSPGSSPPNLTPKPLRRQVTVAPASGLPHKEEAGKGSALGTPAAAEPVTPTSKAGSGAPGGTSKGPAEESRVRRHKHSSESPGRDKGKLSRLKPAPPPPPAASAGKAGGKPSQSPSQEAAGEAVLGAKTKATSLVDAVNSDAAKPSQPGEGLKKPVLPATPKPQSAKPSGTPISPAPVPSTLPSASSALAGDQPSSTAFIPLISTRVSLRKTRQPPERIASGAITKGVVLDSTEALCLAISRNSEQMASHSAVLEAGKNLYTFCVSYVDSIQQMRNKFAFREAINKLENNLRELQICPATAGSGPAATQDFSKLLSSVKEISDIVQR
Sequence of UniProt Q9UQB9 (whole entry, looked up): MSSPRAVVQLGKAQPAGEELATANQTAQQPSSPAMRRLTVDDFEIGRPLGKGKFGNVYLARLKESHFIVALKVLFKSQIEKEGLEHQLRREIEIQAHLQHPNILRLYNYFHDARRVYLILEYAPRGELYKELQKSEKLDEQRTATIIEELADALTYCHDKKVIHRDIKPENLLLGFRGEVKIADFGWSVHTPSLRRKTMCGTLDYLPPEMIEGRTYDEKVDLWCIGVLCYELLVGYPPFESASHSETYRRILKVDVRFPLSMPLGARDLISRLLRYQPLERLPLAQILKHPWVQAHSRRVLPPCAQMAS
Sequence of UniProt Q00532 (whole entry, looked up): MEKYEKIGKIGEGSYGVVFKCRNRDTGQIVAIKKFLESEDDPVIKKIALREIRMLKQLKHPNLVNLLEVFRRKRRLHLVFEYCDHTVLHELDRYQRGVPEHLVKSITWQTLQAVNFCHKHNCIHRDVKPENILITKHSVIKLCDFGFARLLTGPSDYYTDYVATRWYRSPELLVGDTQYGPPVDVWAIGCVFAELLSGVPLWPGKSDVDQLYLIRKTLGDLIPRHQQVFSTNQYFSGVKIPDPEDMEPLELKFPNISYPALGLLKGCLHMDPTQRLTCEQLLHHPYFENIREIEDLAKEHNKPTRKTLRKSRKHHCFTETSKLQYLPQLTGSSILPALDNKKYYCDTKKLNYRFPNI
Sequence of UniProt P30291 (whole entry, looked up): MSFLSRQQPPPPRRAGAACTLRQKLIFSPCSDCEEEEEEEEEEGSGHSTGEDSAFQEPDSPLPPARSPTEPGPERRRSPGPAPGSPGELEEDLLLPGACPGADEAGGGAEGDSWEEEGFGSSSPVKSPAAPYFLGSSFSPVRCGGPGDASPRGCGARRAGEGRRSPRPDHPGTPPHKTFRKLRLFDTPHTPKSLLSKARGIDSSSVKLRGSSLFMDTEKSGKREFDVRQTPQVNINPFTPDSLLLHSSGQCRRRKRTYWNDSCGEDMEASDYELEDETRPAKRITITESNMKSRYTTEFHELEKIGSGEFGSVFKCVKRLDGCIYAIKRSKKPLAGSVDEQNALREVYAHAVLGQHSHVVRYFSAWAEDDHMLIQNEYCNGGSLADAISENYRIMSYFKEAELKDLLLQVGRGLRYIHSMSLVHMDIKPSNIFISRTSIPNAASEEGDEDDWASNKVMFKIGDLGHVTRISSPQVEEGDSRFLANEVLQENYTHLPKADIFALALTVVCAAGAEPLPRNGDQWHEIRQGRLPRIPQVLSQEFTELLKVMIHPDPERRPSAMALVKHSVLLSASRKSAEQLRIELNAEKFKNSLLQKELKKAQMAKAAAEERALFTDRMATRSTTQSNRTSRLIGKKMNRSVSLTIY
Sequence of UniProt Q6P2M8 (whole entry, looked up): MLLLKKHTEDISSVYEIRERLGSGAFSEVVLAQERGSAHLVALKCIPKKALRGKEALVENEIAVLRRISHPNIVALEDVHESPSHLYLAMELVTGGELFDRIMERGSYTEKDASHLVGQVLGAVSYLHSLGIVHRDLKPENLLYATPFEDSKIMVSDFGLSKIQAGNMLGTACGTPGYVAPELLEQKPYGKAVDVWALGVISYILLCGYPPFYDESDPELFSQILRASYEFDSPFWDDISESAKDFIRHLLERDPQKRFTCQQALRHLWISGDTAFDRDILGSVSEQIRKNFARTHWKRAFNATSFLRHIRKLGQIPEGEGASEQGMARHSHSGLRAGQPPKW
Sequence of UniProt P23458 (whole entry, looked up): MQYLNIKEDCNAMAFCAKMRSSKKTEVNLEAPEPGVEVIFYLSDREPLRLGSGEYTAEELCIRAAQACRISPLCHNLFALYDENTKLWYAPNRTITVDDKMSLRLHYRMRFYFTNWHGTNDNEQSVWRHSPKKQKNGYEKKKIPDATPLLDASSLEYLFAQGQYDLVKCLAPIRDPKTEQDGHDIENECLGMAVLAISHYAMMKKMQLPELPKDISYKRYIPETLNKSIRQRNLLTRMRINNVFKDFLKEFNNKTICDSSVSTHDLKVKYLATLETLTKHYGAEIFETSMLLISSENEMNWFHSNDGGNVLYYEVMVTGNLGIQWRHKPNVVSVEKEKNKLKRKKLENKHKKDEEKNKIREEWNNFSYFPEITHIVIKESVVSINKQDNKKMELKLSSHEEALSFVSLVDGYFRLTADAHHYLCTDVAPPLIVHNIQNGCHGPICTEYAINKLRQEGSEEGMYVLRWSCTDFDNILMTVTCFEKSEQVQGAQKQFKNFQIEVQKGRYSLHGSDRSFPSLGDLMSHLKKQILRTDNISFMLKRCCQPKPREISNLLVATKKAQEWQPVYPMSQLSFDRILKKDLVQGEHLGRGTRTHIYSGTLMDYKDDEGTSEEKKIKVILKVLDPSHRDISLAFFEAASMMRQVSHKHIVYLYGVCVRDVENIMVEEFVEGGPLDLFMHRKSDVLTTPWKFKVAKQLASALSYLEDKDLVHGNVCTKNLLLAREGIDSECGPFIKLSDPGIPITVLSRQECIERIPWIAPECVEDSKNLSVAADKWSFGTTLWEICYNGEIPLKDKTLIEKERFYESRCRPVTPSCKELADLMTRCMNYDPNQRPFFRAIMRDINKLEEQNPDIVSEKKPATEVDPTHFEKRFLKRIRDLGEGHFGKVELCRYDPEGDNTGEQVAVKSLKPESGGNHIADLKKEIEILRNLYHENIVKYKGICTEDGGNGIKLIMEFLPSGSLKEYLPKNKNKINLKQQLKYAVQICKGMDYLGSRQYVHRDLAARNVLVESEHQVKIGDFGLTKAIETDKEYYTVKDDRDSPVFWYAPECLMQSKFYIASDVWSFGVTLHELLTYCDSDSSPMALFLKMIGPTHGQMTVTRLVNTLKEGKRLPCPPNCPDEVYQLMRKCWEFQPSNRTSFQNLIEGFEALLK
Sequence of UniProt P57059 (whole entry, looked up): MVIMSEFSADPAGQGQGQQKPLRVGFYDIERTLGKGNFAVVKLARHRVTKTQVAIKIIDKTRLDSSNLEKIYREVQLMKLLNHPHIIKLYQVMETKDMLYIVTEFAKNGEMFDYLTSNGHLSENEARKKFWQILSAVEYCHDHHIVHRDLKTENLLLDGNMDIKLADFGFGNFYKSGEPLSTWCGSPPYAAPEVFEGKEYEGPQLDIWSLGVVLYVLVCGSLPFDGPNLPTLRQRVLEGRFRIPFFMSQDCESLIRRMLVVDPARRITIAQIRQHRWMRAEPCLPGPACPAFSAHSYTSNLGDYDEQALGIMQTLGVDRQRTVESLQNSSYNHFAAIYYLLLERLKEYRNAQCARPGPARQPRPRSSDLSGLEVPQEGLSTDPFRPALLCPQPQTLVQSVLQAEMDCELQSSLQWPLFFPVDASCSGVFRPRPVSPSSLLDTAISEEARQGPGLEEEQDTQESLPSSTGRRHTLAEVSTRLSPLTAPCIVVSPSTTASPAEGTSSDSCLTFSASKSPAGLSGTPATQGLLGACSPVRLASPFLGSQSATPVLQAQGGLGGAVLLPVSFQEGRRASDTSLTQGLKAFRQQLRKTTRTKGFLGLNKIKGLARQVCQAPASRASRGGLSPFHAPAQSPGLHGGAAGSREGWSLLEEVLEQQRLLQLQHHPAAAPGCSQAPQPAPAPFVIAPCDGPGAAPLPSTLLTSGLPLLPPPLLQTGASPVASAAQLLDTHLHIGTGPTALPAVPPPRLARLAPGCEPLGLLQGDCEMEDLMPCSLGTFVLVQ

Set 1 — target: BATF2, bZIP domain (human); technique: DHFR protein complementation; medium: yeast; relative to: wild-type JUN-FOS pair; reading: higher = stronger binding; measurement: binding fitness
Notes: single substitutions, most at no-binding floor
Starting sequence: JUN, bZIP domain (human); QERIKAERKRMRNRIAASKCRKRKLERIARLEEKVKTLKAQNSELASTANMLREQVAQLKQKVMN; partner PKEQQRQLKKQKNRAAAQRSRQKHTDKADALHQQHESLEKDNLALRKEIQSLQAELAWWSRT
L38W: -1.4 natural log
A46L: -0.226 natural log
A29S: -0.403 natural log
E32L: -0.704 natural log
R30N: -0.268 natural log
A57K: -0.274 natural log
E32W: -1.04 natural log
A57P: -1.5 natural log

Set 2 — technique: protein binding microarray; molecule type: double-stranded DNA, one strand shown; medium: in vitro; concentration: not given; relative to: not given; reading: higher = stronger binding; measurement: E-score
Target: Histone acetyltransferase KAT6A, both winged helices, GST fusion (KAT6A, Homo sapiens, UniProt Q92794, residues 1-181)
Notes: 8-mer, flanks averaged, mean of 2 arrays, mostly near background
Residues (chain): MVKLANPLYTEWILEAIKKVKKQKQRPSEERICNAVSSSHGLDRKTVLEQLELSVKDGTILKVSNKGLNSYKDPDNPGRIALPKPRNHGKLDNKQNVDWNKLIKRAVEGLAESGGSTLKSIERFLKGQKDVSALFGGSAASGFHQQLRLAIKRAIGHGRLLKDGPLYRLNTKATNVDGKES
ACAGTTGC: -0.136
AATAATCC: -0.0344
AATACCAG: -0.209
CCTACTCC: -0.243
CAGTTAAA: -0.169
ACCGCGCT: 0.31
AACGATGA: -0.0333
AGTCGCCC: -0.158

Set 3 — concentration: 0.1 µM; measurement: remaining binding
SMILES: Nc1c(C(=O)NCc2ccc(C(=O)NCCCC3CCCCC3)cc2)cnn1-c1ccccc1
Mitogen-activated protein kinase kinase kinase 11 (MAP3K11, Homo sapiens, UniProt Q16584); cell-free assay, competition with immobilised ligand: 76%
Tyrosine-protein kinase ABL1, phosphorylated (ABL1, Homo sapiens, UniProt P00519, E255K); binding, competition with immobilised ligand: 100%
Discoidin domain-containing receptor 2 (DDR2, Homo sapiens, UniProt Q16832); cell-free assay, competition with immobilised ligand: 56%
Wee1-like protein kinase (WEE1, Homo sapiens, UniProt P30291); cell-free assay, competition with immobilised ligand: 100%
Receptor tyrosine-protein kinase erbB-2 (ERBB2, Homo sapiens, UniProt P04626); cell-free assay, competition with immobilised ligand: 100%
Cyclin-dependent kinase-like 1 (CDKL1, Homo sapiens, UniProt Q00532); cell-free assay, competition with immobilised ligand: 100%
Calcium/calmodulin-dependent protein kinase type 1B (PNCK, Homo sapiens, UniProt Q6P2M8); cell-free assay, competition with immobilised ligand: 100%
Tyrosine-protein kinase ABL1, phosphorylated (ABL1, Homo sapiens, UniProt P00519, F317I); binding: 100%
Serine/threonine-protein kinase B-raf (BRAF, Homo sapiens, UniProt P15056, V600E); cell-free assay, competition with immobilised ligand: 100%
Aurora kinase C (AURKC, Homo sapiens, UniProt Q9UQB9); cell-free assay, competition with immobilised ligand: 100%
MAP kinase-interacting serine/threonine-protein kinase 1 (MKNK1, Homo sapiens, UniProt Q9BUB5); cell-free assay, competition with immobilised ligand: 82%
SRSF protein kinase 3 (SRPK3, Homo sapiens, UniProt Q9UPE1); cell-free assay, competition with immobilised ligand: 100%
Serine/threonine-protein kinase 32A (STK32A, Homo sapiens, UniProt Q8WU08); cell-free assay, competition with immobilised ligand: 96%
Rho-associated protein kinase 2 (ROCK2, Homo sapiens, UniProt O75116); cell-free assay, competition with immobilised ligand: 100%
Tyrosine-protein kinase JAK1, JH2 (JAK1, Homo sapiens, UniProt P23458); cell-free assay, competition with immobilised ligand: 100%
Serine/threonine-protein kinase SIK1 (SIK1, Homo sapiens, UniProt P57059); competition binding: 100%

Set 4 — effect on: enzyme activity; action: inhibitor; concentration: 0.5 µM; relative to: control; measurement: remaining activity
Target: Serine/threonine-protein kinase TAO3 (TAOK3, Homo sapiens, UniProt Q9H2K8)
Residues (Q9H2K8 1-898): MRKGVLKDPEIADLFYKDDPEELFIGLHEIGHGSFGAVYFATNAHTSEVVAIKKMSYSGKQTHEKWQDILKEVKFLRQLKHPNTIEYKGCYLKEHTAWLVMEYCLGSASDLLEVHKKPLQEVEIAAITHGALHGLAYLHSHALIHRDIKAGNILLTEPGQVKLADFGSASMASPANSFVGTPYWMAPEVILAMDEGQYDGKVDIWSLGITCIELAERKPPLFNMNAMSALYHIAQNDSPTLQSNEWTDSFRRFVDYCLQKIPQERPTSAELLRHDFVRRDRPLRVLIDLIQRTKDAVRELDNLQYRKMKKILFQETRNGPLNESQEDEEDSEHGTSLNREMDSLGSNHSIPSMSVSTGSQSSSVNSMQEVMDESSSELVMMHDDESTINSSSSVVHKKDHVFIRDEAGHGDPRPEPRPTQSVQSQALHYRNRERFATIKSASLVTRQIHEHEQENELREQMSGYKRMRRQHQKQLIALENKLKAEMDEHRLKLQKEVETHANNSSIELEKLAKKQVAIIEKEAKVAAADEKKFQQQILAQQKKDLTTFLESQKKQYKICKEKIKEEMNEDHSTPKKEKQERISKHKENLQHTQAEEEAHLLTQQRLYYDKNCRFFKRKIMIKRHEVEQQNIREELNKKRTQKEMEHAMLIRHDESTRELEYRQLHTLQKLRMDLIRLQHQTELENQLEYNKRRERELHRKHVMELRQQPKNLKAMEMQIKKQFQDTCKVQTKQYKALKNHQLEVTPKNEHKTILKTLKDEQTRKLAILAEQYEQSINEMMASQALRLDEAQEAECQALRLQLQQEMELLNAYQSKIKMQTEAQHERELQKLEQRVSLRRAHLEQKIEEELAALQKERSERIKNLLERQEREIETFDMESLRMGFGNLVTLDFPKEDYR
COc1ccc(C(=O)Nc2sc3c(c2C(N)=O)CCCC3)cc1OC: 100%
CNC(=O)c1cc(Oc2ccc(NC(=O)Nc3ccc(Cl)c(C(F)(F)F)c3)cc2)ccn1: 63.5%
COc1cc2ncnc(Nc3ccc(Oc4ccccc4)cc3)c2cc1OC: 102%
O=C(O)c1ccc2c3c1cccc3c(=O)n1c3ccccc3nc21: 93.1%
Cc1ccc(NC(=O)c2ccc(CN3CCN(C)CC3)cc2)cc1Nc1nc(-c2cccnc2)cs1: 95.4%
O=C1NC(=O)C(c2cn(CCCO)c3ncccc23)=C1c1cnccn1: 88.2%
COc1ccc(OC)c2c(=S)c3ccccc3[nH]c12: 92.7%
CO[C@H]1C[C@@H]2CC[C@@H](C)[C@@](O)(O2)C(=O)C(=O)N2CCCC[C@H]2C(=O)O[C@H]([C@H](C)C[C@@H]2CC[C@@H](O)[C@H](OC)C2)CC(=O)[C@H](C)/C=C(\C)[C@@H](O)[C@@H](OC)C(=O)[C@H](C)C[C@H](C)/C=C/C=C/C=C/1C: 106%
Nc1ncnc2n[nH]c(Nc3ccc(F)cc3)c12: 92.4%
O=S(=O)(c1cccc2cnccc12)N1CCCNCC1: 97.3%
Cn1sc(=O)n(Cc2ccccc2)c1=O: 101%
N#CC(C#N)=C(N)/C(C#N)=C/c1ccc(O)cc1: 102%
CN(C)c1ccc(C=C2C(=O)Nc3ccccc32)cc1: 95.1%
Oc1ccc(-c2nc(-c3ccncc3)c(-c3ccc(F)cc3)[nH]2)cc1: 103%

Some of these lines once more (set 1):
A46L: -0.226 natural log
A29S: -0.403 natural log
E32L: -0.704 natural log
R30N: -0.268 natural log
A57K: -0.274 natural log
E32W: -1.04 natural log
